Results collected from several papers.
Protocols differ between the studies behind these lines.
ESR2: Estrogen receptor beta (ESR2, Homo sapiens, UniProt Q92731)
UniProt Q92731, sequence (whole entry, looked up): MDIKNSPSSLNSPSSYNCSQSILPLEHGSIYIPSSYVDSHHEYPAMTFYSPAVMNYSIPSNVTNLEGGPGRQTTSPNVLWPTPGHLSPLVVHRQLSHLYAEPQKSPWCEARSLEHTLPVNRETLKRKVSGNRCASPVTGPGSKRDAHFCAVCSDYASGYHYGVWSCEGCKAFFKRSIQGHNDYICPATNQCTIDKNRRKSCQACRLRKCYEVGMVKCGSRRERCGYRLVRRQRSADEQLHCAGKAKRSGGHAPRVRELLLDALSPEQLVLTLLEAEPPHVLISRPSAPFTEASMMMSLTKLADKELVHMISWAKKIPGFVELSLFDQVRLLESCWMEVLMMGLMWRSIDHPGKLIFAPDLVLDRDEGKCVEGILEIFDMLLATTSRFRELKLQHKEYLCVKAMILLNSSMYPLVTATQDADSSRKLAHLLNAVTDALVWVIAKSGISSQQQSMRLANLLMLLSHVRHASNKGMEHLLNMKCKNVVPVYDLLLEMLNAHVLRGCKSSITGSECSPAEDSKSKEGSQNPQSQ
UniProt Q16774, sequence (whole entry, unmodified, looked up): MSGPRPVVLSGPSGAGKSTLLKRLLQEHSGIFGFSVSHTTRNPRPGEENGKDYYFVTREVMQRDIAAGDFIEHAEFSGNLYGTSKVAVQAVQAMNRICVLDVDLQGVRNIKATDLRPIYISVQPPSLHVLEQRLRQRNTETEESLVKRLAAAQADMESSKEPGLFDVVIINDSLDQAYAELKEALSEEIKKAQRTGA
UniProt Q9NQS5, sequence (whole entry, looked up): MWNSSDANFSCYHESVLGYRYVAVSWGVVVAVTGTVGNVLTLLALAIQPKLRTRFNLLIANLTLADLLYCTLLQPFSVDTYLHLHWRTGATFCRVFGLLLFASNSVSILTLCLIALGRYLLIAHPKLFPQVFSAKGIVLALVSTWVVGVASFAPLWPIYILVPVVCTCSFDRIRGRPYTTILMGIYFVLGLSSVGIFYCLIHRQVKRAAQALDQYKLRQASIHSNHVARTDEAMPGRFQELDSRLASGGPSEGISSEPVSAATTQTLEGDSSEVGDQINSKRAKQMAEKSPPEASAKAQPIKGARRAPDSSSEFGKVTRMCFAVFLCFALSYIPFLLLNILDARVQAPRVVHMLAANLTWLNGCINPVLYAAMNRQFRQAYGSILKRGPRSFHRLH

Structure (SMILES)	target or system	assay	system	conditions	how to read	quantity	result
CC1=C(Cn2cnc([N+](=O)[O-])n2)C(=O)c2ccccc2C1=O	Schistosoma mansoni		adult worms	25 µM, 48 h		killing	45.9%
Nc1ncnc2c1ncn2[C@@H]1O[C@H](CO[P@](=O)(O)O[P@](=O)(O)O[P@@](=O)(O)S)[C@@H](O)[C@H]1O	GUK1 (Homo sapiens, UniProt Q16774)	binding, isothermal titration calorimetry		molar ratio 0.09853, fitted curve		ΔH	-1.98 kcal/mol
COc1ccc(-c2oc3c(CC=C(C)C)c(O[C@@H]4O[C@H](CO)[C@@H](O)[C@H](O)[C@H]4O)cc(O)c3c(=O)c2O[C@@H]2O[C@@H](C)[C@H](O)[C@@H](O)[C@H]2O[C@@H]2OC[C@@H](O)[C@H](O)[C@H]2O)cc1	ESR2	array formation, agonist	GFP-ERβ PRL-HeLa	1 h		EC50	4710 nM
CC(C)NCC(O)c1ccc(O)c(O)c1 (stereo not shown)			ventricular cardiomyocytes, C57BL/6 mouse	dose not given, 0.64 s		sarcomere length	1.72 µm
CCOc1nc2cccc(C(=O)OC(C)OC(=O)OC3CCCCC3)c2n1Cc1ccc(-c2ccccc2-c2nnn[nH]2)cc1 (stereo not shown)	Nedd8-cullin1 interaction	neddylation, AlphaScreen		100 µM		inhibition	105%
CC1=C(Cc2cn(Cc3ccccc3)nn2)C(=O)c2ccccc2C1=O	Schistosoma mansoni		adult worms	10 µM, 72 h		killing	56.9%
O=c1c(O)c(-c2ccc(O)c(O)c2)oc2cc(O)cc(O)c12	ESR2	array formation, agonist	GFP-ERβ PRL-HeLa	1 h		EC50	314 nM
COc1cnc2cccc(N3CCc4c(cc(Cn5ccnc5C)cc4-c4cn(C)nc4C(F)(F)F)C3=O)c2c1	COV504	cell growth, inhibitor		120 h		EC50	75.4 nM
C[N+](C)(C)CCOP(=O)([O-])OP(=O)([O-])OC[C@H]1O[C@@H](n2ccc(N)nc2=O)[C@H](O)[C@@H]1O.[Na+]	Nedd8-cullin1 interaction	neddylation, AlphaScreen		100 µM		inhibition	1.3%
CCn1cc(-c2cc(Cn3ccnc3)cc3c2CCN([C@H](c2cc(OC)ccn2)C2CC2)C3=O)c(C(F)(F)F)n1	NCI-H358	cell growth, inhibitor		120 h		EC50	> 30000 nM
CCCNCC(O)COc1ccccc1C(=O)CCc1ccccc1 (stereo not shown)	Nedd8-cullin1 interaction	neddylation, AlphaScreen		100 µM		inhibition	-84.8%
CC1=C(Cn2cc(CO)nn2)C(=O)c2ccccc2C1=O	Schistosoma mansoni		NTS		relative to: L6 CC50 over IC50	selectivity index	6.4
COc1ccc(-n2nc(C(N)=O)c3c2C(=O)N(c2ccc(N4CCCCC4=O)cc2)CC3)cc1	Nedd8-cullin1 interaction	neddylation, AlphaScreen		100 µM		inhibition	26.9%
CCn1cc(-c2cc(Cn3ccoc3=N)cc3c2CCN([C@@H](C)c2cc(OC)ccn2)C3=O)c(C(F)(F)F)n1	LCLC-97TM1	cell growth, inhibitor		120 h		EC50	> 30000 nM
CC1=Nc2ccc(Cl)cc2S(=O)(=O)N1	Nedd8-cullin1 interaction	neddylation, AlphaScreen		100 µM		inhibition	-9.9%
CC1=C(Cn2cc(C(C)(C)O)nn2)C(=O)c2ccccc2C1=O	Schistosoma mansoni		adult worms	10 µM, 24 h		killing	39.4%
CCCCCCCNc1[nH]c(=O)[nH]c(=O)c1N=O	GPR84 (Homo sapiens, UniProt Q9NQS5)	cAMP				EC50	457 nM
CC1=C(Cn2cncn2)C(=O)c2ccccc2C1=O	Schistosoma mansoni		adult worms	25 µM, 48 h		killing	45.8%
Cn1cc(-c2ccc(-c3cncc(Cl)c3N3CCC4(CCNC4=O)CC3)cc2)cn1	COLO 205	gene expression, microarray, refers to: CABLES1 mRNA		concentration not given, 2 h	relative to: untreated cells	log2 fold change	2.49

A few entries again:
Structure (SMILES)	target or system	assay	system	conditions	how to read	quantity	result
CCCCCCCNc1[nH]c(=O)[nH]c(=O)c1N=O	GPR84 (Homo sapiens, UniProt Q9NQS5)	cAMP				EC50	457 nM
CCn1cc(-c2cc(Cn3ccnc3)cc3c2CCN([C@H](c2cc(OC)ccn2)C2CC2)C3=O)c(C(F)(F)F)n1	NCI-H358	cell growth, inhibitor		120 h		EC50	> 30000 nM
